Results collected from several papers.
A part holds a random share of what one study measured.
Sequence of UniProt P51812 (whole entry, looked up): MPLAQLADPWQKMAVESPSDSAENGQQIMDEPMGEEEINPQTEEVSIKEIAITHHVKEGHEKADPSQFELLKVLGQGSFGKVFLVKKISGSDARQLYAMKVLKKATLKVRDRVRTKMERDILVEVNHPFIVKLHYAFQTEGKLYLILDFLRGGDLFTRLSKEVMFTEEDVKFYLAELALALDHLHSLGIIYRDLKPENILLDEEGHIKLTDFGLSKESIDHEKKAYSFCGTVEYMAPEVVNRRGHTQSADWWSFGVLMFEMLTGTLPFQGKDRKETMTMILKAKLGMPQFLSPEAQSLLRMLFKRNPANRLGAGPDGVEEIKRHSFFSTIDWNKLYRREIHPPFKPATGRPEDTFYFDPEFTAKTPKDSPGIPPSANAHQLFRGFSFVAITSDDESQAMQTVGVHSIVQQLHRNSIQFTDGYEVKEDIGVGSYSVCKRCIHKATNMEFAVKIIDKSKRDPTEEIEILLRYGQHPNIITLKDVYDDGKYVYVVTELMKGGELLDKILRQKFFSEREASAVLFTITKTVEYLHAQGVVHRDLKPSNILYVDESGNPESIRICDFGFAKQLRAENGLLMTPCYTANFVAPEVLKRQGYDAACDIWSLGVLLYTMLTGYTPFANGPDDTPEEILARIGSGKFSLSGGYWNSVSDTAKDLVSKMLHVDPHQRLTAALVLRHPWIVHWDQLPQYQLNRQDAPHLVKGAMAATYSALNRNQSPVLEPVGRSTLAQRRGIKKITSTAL
Sequence of UniProt Q9UQ88 (whole entry, looked up): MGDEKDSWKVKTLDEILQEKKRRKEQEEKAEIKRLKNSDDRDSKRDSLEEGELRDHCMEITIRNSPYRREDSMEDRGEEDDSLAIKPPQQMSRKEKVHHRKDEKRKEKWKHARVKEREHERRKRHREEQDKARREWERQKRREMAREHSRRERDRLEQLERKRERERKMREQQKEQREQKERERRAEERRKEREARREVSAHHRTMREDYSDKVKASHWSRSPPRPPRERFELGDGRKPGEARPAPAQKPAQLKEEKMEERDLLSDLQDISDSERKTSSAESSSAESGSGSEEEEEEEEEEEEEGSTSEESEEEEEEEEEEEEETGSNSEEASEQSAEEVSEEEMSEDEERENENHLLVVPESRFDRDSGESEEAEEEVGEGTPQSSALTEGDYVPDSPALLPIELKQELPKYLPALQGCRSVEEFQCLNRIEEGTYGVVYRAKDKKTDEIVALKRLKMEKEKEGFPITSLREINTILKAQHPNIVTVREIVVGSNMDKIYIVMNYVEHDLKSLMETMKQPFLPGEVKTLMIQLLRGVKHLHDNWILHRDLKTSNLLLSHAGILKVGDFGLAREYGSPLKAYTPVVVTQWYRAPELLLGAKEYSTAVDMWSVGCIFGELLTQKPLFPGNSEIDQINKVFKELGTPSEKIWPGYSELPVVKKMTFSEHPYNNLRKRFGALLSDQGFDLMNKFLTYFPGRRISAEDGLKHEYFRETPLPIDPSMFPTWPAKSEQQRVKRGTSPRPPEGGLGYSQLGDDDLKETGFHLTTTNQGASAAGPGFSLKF
Sequence of UniProt Q06418 (whole entry, looked up): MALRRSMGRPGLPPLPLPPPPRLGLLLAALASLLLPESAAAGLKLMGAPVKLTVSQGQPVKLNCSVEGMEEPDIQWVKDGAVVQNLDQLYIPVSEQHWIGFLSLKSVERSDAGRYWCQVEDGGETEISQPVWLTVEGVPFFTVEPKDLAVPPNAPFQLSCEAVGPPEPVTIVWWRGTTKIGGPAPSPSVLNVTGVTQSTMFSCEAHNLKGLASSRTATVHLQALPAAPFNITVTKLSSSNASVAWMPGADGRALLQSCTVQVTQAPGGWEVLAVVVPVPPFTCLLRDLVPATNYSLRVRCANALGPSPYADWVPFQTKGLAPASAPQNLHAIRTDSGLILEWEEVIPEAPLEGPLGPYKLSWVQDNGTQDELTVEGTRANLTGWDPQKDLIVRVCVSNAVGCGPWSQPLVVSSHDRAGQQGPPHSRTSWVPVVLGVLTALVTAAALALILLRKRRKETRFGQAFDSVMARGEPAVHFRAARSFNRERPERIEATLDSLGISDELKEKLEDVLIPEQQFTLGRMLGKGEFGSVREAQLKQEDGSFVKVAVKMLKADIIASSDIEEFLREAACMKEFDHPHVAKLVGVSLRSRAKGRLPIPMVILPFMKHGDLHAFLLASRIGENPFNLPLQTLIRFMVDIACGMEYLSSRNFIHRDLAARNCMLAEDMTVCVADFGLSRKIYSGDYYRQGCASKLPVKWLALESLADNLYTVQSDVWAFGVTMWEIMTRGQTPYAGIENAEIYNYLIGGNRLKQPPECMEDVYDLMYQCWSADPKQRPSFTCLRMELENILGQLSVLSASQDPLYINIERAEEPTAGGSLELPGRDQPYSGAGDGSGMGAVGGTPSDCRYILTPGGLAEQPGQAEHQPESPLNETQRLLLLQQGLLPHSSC
Sequence of UniProt P49760 (whole entry, looked up): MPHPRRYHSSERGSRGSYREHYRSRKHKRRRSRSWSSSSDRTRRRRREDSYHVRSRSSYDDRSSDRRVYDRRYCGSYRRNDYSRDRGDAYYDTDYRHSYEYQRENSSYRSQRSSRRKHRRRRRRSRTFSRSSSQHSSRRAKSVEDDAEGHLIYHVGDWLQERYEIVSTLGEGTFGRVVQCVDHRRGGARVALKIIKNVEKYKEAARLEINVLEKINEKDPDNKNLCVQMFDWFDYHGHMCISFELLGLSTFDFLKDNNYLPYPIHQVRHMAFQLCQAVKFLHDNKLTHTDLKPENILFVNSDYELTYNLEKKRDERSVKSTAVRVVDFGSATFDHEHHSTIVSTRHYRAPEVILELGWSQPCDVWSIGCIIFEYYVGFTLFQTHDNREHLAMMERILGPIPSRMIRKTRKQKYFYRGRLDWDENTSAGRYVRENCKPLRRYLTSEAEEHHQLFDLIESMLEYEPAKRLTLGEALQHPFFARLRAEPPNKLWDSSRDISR
Sequence of UniProt Q96SB4 (whole entry, looked up): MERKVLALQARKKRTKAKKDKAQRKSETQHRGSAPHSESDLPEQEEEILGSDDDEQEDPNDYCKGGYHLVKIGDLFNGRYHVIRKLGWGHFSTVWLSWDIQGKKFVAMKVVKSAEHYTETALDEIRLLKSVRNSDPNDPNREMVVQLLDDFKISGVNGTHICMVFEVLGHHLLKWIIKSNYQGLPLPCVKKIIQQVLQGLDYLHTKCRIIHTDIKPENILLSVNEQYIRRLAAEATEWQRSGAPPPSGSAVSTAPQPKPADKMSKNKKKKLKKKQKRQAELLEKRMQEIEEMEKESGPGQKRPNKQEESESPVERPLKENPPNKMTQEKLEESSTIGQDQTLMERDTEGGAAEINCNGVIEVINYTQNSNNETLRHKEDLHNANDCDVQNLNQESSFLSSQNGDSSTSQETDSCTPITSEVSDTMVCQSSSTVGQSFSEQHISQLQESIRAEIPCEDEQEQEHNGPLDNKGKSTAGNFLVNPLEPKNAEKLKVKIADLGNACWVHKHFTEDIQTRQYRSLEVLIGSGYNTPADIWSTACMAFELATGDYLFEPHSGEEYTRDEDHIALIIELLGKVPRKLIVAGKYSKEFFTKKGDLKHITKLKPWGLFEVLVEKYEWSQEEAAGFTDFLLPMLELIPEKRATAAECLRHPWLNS
Sequence of UniProt P49674 (whole entry, looked up): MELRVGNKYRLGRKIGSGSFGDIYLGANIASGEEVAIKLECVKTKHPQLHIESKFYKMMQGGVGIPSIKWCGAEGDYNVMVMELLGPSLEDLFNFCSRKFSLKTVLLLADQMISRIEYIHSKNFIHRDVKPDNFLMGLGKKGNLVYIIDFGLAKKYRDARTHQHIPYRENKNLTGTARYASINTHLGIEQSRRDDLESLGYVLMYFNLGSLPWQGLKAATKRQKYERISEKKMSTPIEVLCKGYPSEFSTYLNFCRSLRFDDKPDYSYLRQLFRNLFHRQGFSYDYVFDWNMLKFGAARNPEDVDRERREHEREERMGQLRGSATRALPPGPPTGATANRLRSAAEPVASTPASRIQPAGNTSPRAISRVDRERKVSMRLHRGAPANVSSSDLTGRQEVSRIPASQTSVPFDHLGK
Sequence of UniProt P07947 (whole entry, looked up): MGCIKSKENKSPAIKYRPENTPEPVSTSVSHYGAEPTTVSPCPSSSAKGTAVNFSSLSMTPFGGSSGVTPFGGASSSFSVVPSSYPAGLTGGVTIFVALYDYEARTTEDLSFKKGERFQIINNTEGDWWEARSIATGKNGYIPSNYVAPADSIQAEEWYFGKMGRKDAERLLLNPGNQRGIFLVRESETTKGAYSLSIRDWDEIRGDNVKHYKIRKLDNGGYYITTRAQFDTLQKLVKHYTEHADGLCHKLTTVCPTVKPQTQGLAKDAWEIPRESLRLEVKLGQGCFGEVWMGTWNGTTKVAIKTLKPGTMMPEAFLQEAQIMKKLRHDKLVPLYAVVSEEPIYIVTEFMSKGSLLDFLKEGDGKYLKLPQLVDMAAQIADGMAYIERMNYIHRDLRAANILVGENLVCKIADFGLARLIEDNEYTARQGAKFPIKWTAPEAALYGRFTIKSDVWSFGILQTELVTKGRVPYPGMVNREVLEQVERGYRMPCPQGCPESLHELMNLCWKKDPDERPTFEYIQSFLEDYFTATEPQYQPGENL

Sample 1
Structure (SMILES): C[S+]([O-])c1ccc(-c2nc(-c3ccncc3)c(-c3ccc(F)cc3)[nH]2)cc1 (stereo not shown)
Observed: enzyme activity
Mode: inhibitor
Tested at: 0.5 µM
Baseline: control
target | remaining activity [%]
SRPK1 (Homo sapiens, UniProt Q96SB4) | 99.5
PAK6 (Homo sapiens, UniProt Q9NQU5) | 76.7
TYRO3 (Homo sapiens, UniProt Q06418) | 97
SGK2 (Homo sapiens, UniProt Q9HBY8) | 106
YES1 (Homo sapiens, UniProt P07947) | 92.6
EPHB3 (Homo sapiens, UniProt P54753) | 96.7
FES (Homo sapiens, UniProt P07332) | 97.3
ACVRL1 (Homo sapiens, UniProt P37023) | 97.7
EPHA2 (Homo sapiens, UniProt P29317) | 94.8
RPS6KA3 (Homo sapiens, UniProt P51812) | 95.7
FLT1 (Homo sapiens, UniProt P17948) | 95.2
CLK2 (Homo sapiens, UniProt P49760) | 108
MELK (Homo sapiens, UniProt Q14680) | 102
PRKCZ (Homo sapiens, UniProt Q05513) | 103
PAK5 (Homo sapiens, UniProt Q9P286) | 104
RPS6KB2 (Homo sapiens, UniProt Q9UBS0) | 97.2
CSNK1E (Homo sapiens, UniProt P49674) | 31

Sample 2
Target: RING finger protein unkempt homolog, zinc fingers 1-6, GST-SBP tag (UNK, Homo sapiens, UniProt Q9C0B0, residues 30-357)
Sequence of UniProt Q9C0B0 (30-357, looked up): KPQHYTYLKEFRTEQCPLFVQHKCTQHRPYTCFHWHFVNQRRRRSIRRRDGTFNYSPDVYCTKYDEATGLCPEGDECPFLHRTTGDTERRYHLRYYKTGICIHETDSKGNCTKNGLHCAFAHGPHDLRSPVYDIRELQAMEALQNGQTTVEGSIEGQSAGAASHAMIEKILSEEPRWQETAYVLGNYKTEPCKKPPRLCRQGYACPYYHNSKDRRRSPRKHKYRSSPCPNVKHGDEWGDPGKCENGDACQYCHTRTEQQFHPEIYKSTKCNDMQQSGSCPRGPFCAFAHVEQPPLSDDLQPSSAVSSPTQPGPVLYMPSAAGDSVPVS
Method: RNA Bind-n-Seq
Molecule type: RNA
Sample: in vitro
Tested at: not given
Notes: RNA with constant flanks, human-mouse chimeric sites, ends assumed
Baseline: input RNA pool
Reading: higher = stronger binding
All sequences stand within: GGGAGUUCUACAGUCCGACGAUC … CAACAGAGGAUUGAGCAUCA
Oligonucleotide | bound/input enrichment
UCCCUGUUGCUGAAUAAAUGGCUUGUAAAGAAGUUUUUCCAAGCUGUAACCCAUGCUGUUAUUAUAGUUGCUGCAAAAUGUUCUUCCUGAUAUUGAUUUUAUUUGUUCUGACUCUCCCUC | 1.32 ratio
AAAGAGAAACUAAAGCAACUAAUAGAGAAGAGGAUUGGGCAAAGAGAUUUCAUAGAGAAACUAGGAUUUUAUUAGCAACAUGAGUUAUAUUCCAGAGCGUCUCAGAAACCCCAGCCAAAC | 5.13 ratio
GCUCCUCCCCGCUCUGCCCCUGCCUGCCACUGGGCUGGGACCAGAAUCCAGCUUUCUUUUAAAACUCUCAGUGUAACUUCUUUUUCUGACAUUUCAUUUUUUUUAAAUAGUGUAUUUUUU | 6.58 ratio
CGCUGGCCCAAGCUGAUGGACUCUGAUCUUGAUCUCUUCUCAGGCACGUUUGCCUUCUCUUAGUCCCUGUUUUCGGGAUGUUAUGAAUCUCAGUACUGUGGUUUGAAAGCACCAGCUUUG | 0.196 ratio
ACAGUUAUAUUGUUGAGUUUCAUUUUCUUGUAUGUUUGUAGUGUCUGCUUGCCUGUGACUUCUGGUAAAAUAAAAUAAGCCUUUGAAAAUAUUUUAGCAUGGUAUUUUUCUAAAAAUAAA | 1.37 ratio
ACACAAUAUGAGACCAACAGCUUGGACUUCAAAGUUGGGGCAGAUGGGACAGUCUUCGCCACCCGGGAGCUGCAGGUCCCCUCCGAGCAGGUGGCGUUUACCGUCACUGCAUGGGACAGC | 0.206 ratio
AUAAAGGCCAUGUUGAGUGGUCCAGGUCAGUUUGCUGAGAAUGAAACCAACGAGGUCAAUUUUAGAGAGAUACCUUCACAUGUGCUAUCAAAAGUGUGCAUGUAUUUUACCUACAAGGUC | 0.106 ratio
GAUCAUGAACCACCAUCAGAAAUGAAGAUGAGAUUACCCAGACGAGCCCAAAACCGCGCGCUACAGAAAAGUAAACUUAACCUUGCACCAAUUUCUCAUGAAGAUACAAGUUAAGAGAGC | 0.2 ratio

Sample 3
Structure (SMILES): O=C1NC(c2ccccn2)Sc2ccccc21 (stereo not shown)
Method: competition with immobilised ligand
Tested at: 1 µM
target | observed | remaining binding
Cyclin-dependent kinase 4, with cyclin D3 (CDK4, Homo sapiens, UniProt P11802) | cell-free assay | 81%
CDK2 (Homo sapiens, UniProt P24941) | cell-free assay | 81%
WNK4 (Homo sapiens, UniProt Q96J92) | cell-free assay | 100%
Ribosomal protein S6 kinase alpha-3, C-terminal kinase domain (RPS6KA3, Homo sapiens, UniProt P51812) | cell-free assay | 78%
CDK11A (Homo sapiens, UniProt Q9UQ88) | binding | 100%
DDR2 (Homo sapiens, UniProt Q16832) | cell-free assay | 100%
STK32A (Homo sapiens, UniProt Q8WU08) | cell-free assay | 78%
ALK (Homo sapiens, UniProt Q9UM73, C1156Y) | cell-free assay | 84%

Further values, each from its own experiment
SMILES | sample | measurement | value
CCOC(=O)[C@@H]1CSCC(=O)N[C@@H](CC)C(=O)N(C)[C@@H](C)C(=O)N[C@@H](CC(C)C)C(=O)N2CCC[C@@H]2C(=O)N(CC(C)C)CC(=O)N[C@@H](CC(C)C)C(=O)N(C)[C@@H](C)C(=O)N[C@@H](CC(C)C)C(=O)N1C | hydrocarbon/water | logD | 2.38

Some of these lines once more (sample 3):
target | observed | remaining binding
WNK4 (Homo sapiens, UniProt Q96J92) | cell-free assay | 100%
Ribosomal protein S6 kinase alpha-3, C-terminal kinase domain (RPS6KA3, Homo sapiens, UniProt P51812) | cell-free assay | 78%
CDK11A (Homo sapiens, UniProt Q9UQ88) | binding | 100%
DDR2 (Homo sapiens, UniProt Q16832) | cell-free assay | 100%
